{"data": "Experimental data collected from several papers", "note": "Compare with care: the assays were run in different laboratories. Several values in a cell are separate wells, animals, samples, runs or records. ± gives the spread as reported."}
{"SMILES": "Cc1ccc(NS(=O)(=O)c2c(C(=O)N3CCCCCC3)c(C)n(C)c2C)c(Cl)c1", "target or system": "Human alphaherpesvirus 1", "assay": "viral infection", "system": "HaCaT", "conditions": "100 µM, 36 h", "how to read": "reference: untreated", "measurement": "infection", "value": "98.4% and 99.6% and 129%"}
{"SMILES": "CCN(CC)C(=O)[C@@H]1C=C2c3cccc4c3c(cn4C(=O)c3cccs3)C[C@H]2N(C)C1", "assay": "head-twitch response, magnetometer detection", "system": "mouse C57BL/6J male", "conditions": "intraperitoneal", "measurement": "ED50", "value": "1.53 µmol/kg"}
{"SMILES": "O=C(O)c1ccc(-c2nc(-c3ccccc3Cl)c3sccn23)cc1", "system": "C57BL/6 mice, 5-fluorouracil treated", "conditions": "dose not given, day 3", "measurement": "reticulated platelets", "value": "1.49% and 1.35% and 1.28% and 1.46%"}
{"SMILES": "[2H]C([2H])([2H])C1(C([2H])([2H])[2H])NC(=O)N(c2ccc(F)c(C(F)(F)F)c2)C1=O", "target or system": "Schistosoma mansoni", "system": "adult stage, infected mice", "conditions": "oral, 25 mg/kg", "how to read": "reference: untreated infected", "measurement": "worm burden reduction", "value": "100%"}
{"SMILES": "COc1ccccc1-c1ccncc1C(=O)Nc1nnc(OCc2ccc(Cl)cc2)s1", "target or system": "RPE-1 BRCA1 WT parental", "conditions": "8 µM, run 2", "how to read": "reference: untreated", "measurement": "colony survival", "value": "76.3%"}
{"SMILES": "NCCO.O=C(O)C(Cl)Cl", "target or system": "Solanum nigrum", "assay": "herbicidal activity", "conditions": "15 mg/mL, 21 days, pre-emergence greenhouse", "measurement": "inhibition", "value": "0%"}
{"SMILES": "COc1ccccc1-c1n[nH]c2nc(N[C@H]3CC[C@H](NS(=O)(=O)CC(C)C)CC3)ncc12", "assay": "bead binding, competition bead pull-down, refers to: LINJ.30.1440", "system": "Leishmania donovani extract", "conditions": "10 µM", "how to read": "reference: vehicle", "measurement": "relative abundance", "value": 0.92}
{"SMILES": "Cc1cc(Oc2nc(N3CC[C@@H](c4ccncc4)C3)ncc2F)[nH]n1", "target or system": "Mycobacterium tuberculosis", "system": "THP-1, H37Rv non-replicating", "conditions": "0.3001 µM, day 4 plus 1", "measurement": "normalised growth", "value": "34.7% and 35.5%"}
{"SMILES": "O=C(C[Se]C(=O)c1ccccc1)Nc1cccc(C(F)(F)F)c1", "target or system": "NCI60 prostate subpanel (PC-3, DU-145)", "assay": "cytotoxicity, inhibitor", "conditions": "five-dose", "measurement": "CC50", "value": "12.4 µM"}
{"SMILES": "CCN(CC)C(=O)[C@@H]1C=C2c3cccc4c3c(cn4C(=O)c3ccco3)C[C@H]2N(C)C1", "assay": "magnetometer", "system": "C57BL/6J mouse, male", "conditions": "intraperitoneal, 0.0625 mg/kg, 30 min session", "measurement": "head-twitch response count", "value": 6}
{"SMILES": "CN1C(=O)C(C2C3=C(CC(C)(C)CC3=O)Oc3ccc([N+](=O)[O-])cc32)C(=O)N(C)C1=O (stereo not drawn)", "target or system": "3T3-L1 mature adipocytes", "assay": "lipolysis, Oil Red O staining", "conditions": "IC20", "measurement": "mean lipid content", "value": "0.73 OD492"}
{"SMILES": "Cc1cc(C(=O)Nc2nc3cccc(C)c3n2[C@H]2CCCCN(C(=O)/C=C/CN(C)C)C2)ccn1", "target or system": "Trypanosoma brucei", "assay": "propidium iodide flow cytometry", "system": "bloodstream form", "conditions": "concentration not given, 16 h", "measurement": "cells in G1 phase", "value": "33.9%"}
{"SMILES": "CC(C)CC(C(=O)N1CC2(CC1C#N)C(=O)Nc1ccccc12)N(C)C(=O)c1cc2c(F)cc(F)c(F)c2[nH]1 (stereo not drawn)", "target or system": "human coronavirus 229E", "assay": "viral replication", "conditions": "0.1 µM", "measurement": "inhibition", "value": "100%"}
{"SMILES": "O=C1NC2(CC2)COc2ncc(F)cc2[C@H]2COCCN2c2ccn3ncc1c3n2", "system": "Sprague-Dawley rat, female, serum", "conditions": "oral, 2.5 mg/kg/day, 4 weeks daily, end of treatment", "measurement": "alanine aminotransferase activity", "value": "32 ± 8.8 U/L"}
{"SMILES": "COc1ccccc1-c1n[nH]c2nc(NC3CCN(C(=O)Cc4ccc(F)cc4F)CC3)ncc12", "assay": "bead binding, competition bead pull-down, refers to: LINJ.35.3130", "system": "Leishmania donovani axenic amastigote extract", "conditions": "10 µM", "how to read": "reference: vehicle", "measurement": "relative abundance", "value": 1.02}
{"SMILES": "Cc1ccc(C2=CC(C)(C)Oc3ccc(-c4ccc(-c5ccc(C(=O)O)cc5)[nH]4)cc32)cc1", "system": "CD1 mouse male", "conditions": "10 mg/kg for 2 weeks, after end of dosing", "measurement": "cauda epididymal sperm count", "value": "decreased"}
{"SMILES": "Cc1ccc2c(n1)c(-c1cccc(S(C)(=O)=O)c1)c(C)n2C/C(F)=C/CN", "target or system": "NMDA glutamate receptor (rat)", "assay": "binding, radioligand binding", "system": "rat tissue", "conditions": "10 µM, Agonism", "measurement": "inhibition", "value": "-7%"}
{"SMILES": "CCOC(=O)/C=C/[C@H](C[C@@H]1CCNC1=O)NC(=O)[C@@H](CC(=O)[C@@H](NC(=O)c1cc(C)on1)C(C)C)Cc1ccc(F)cc1", "target or system": "Rhinovirus A", "assay": "viral replication, high-content imaging", "system": "RV-A16", "measurement": "IC50", "value": "0.005 ± 0.002 µM"}
{"SMILES": "CC(C)(C)C(=O)OCOP(=O)(OCOC(=O)C(C)(C)C)C1CCCN(O)C1=O (stereo not drawn)", "target or system": "OVCAR-8", "measurement": "TGI", "value": "8.91 µM"}
{"SMILES": "CCCCCC1=C(NCC)C(=O)C(C/C=C(\\C)CCC=C(C)C)=C(O)C1=O", "assay": "RNA-seq GSEA, refers to: HALLMARK_ALLOGRAFT_REJECTION", "system": "mouse, A53T α-synuclein lesioned, striatum", "conditions": "dose not given", "how to read": "reference: untreated A53T lesioned mice, direction not given", "measurement": "normalised enrichment score", "value": 1.69}
{"SMILES": "O=C(C[Se]C(=O)c1ccco1)Nc1cccc(C(F)(F)F)c1", "target or system": "NCI60 prostate subpanel (PC-3, DU-145)", "assay": "cell growth", "conditions": "10 µM, 48 h, one-dose", "measurement": "mean growth percent", "value": "-13%"}
{"note": "Repeated from above:"}
{"SMILES": "Cc1ccc(C2=CC(C)(C)Oc3ccc(-c4ccc(-c5ccc(C(=O)O)cc5)[nH]4)cc32)cc1", "system": "CD1 mouse male", "conditions": "10 mg/kg for 2 weeks, after end of dosing", "measurement": "cauda epididymal sperm count", "value": "decreased"}
{"SMILES": "Cc1ccc2c(n1)c(-c1cccc(S(C)(=O)=O)c1)c(C)n2C/C(F)=C/CN", "target or system": "NMDA glutamate receptor (rat)", "assay": "binding, radioligand binding", "system": "rat tissue", "conditions": "10 µM, Agonism", "measurement": "inhibition", "value": "-7%"}
{"SMILES": "CCOC(=O)/C=C/[C@H](C[C@@H]1CCNC1=O)NC(=O)[C@@H](CC(=O)[C@@H](NC(=O)c1cc(C)on1)C(C)C)Cc1ccc(F)cc1", "target or system": "Rhinovirus A", "assay": "viral replication, high-content imaging", "system": "RV-A16", "measurement": "IC50", "value": "0.005 ± 0.002 µM"}
